Published values pooled from the literature.
Numbered parts are unrelated; each lists some results of a single study.

Set 1
Target: RING finger protein unkempt homolog, zinc fingers 1-6, GST-SBP tag (UNK, Homo sapiens, UniProt Q9C0B0, residues 30-357)
Technique: RNA Bind-n-Seq
Molecule type: RNA
Matrix: in vitro
Tested at: not given
Setting: RNA with constant flanks, human and mouse sites, ends assumed
Relative to: input RNA pool
Reading: higher = stronger binding
Shared flanks, not repeated: GGGAGUUCUACAGUCCGACGAUC … CAACAGAGGAUUGAGCAUCA
Target sequence (chain): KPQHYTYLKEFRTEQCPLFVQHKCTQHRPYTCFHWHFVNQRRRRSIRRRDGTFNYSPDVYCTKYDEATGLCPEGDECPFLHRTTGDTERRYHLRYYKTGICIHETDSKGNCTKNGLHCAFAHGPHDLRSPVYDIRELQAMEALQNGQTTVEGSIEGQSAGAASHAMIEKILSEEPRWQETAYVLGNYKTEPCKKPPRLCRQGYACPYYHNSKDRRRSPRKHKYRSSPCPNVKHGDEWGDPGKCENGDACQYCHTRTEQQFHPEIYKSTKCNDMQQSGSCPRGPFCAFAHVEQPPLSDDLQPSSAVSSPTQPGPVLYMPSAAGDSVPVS
Strand | bound/input enrichment [ratio]
CACUAGGGGUUGGGAAGGGCGGCGGACGGUGCCGGGGGGAGAUUGGCCUGGCAGGCCCUUUUAGCUACCCAUUACUGGACCAGAAAGAUGACAUCUAUCAUCAAGUUAACCACCCUCUCU | 0.514
CCAGACUUUCUUUUCCCUGAAGAAGCUCUGAAGGUUUCAGCUGUUUCUGUAUUGGCUGCCCAGAAGACUGGGACACCAACAGUGUCCUCUAAUUCUCACUCACAUAGCGAGAAAUCUAGU | 0.168
CUGAGCAAGAUGUACCCGCAGACGCGCCACCCGGCACCGCAUCAGCCUGCUCAACCCUUCAAAUUUACAAUUUCAGAAUCCUGUGAUCGGAUUAAGGAAGAGUUUCAGUUUUUACAGGCU | 0.425
UCUGUGGUGGUGAGGCGGCGGUCACCCCGUCCUAGCCCCGUGCCAAAACCUAGUCCUCCACUUUCCAGCACAUCCCAGAUGGGCUCAACUCUGCCGAGUGGUGCCGGGUAUCAGUCUGGG | 0.0852
UUUACUGAAGGAUGUAUUAAAAAGUUUCCAUUCUGUCAAGUAAGUACAGAAGAAGGCAAAGGGAAGAUCUGGUGGAAUCUUCGAAAAACCUGCUACAGUAUUGUUGAGCACAACUGGUUU | 0.331
ACCUCCCAAGUCCUGUAUGAGUGGGAACAGGGAUUUUCUCAGUCCUUCACUCAAGAACAAGUAGCUGAUAUUGAUGGACAGUAUGCAAUGACUCGAGCUCAGAGGGUACGAGCUGCUAUG | 0.156
AUUACUCUAAUGGAGUACUAUUCCAAAGAAGCCUUGGGUGAUUCCAAAUCUAAGAAGUCAGUAGCUUAUAAUUACGCAUGCAUACUUAUUUUGGUGGUGGUUCAGUCUUCCAGUGAUGUU | 0.431
GCUGUCAUGUAUGUAUGCAAGGUGGCAGCUGAGUGGAGAAACACCUUCCACAAGGAUGUUGUAGUUGAUCUGGUGUGUUAUCGACGAAAUGGCCACAAUGAGAUGGACGAACCUAUGUUU | 0.13
UUCUAAAGAUAUCUAGCAAAUCUCCAGCAGAGAUCUAGGACAGUGCCCAGGAAAGCAAUGGUAUCUGUUGGUAGGUACAGGACUGUAUAUAGGACUCUAUUCACUUAGCUGUAAAUGAUG | 2.6
GAAUUGAUUAAAGAGAAACUCAUUUUUCCCUACGUGGAAUUGGAUCUACAUAGCUAUGAUUUAGGCAUAGAGAAUCGUGAUGCCACCAACGACCAAGUCACCAAGGAUGCUGCAGAAGCU | 2.16
CCCAAACCACCCCAGAUUCAUUAUUGUGAUGUUUGUAAGAUCAGCUGUGCUGGACCACAGACUUAUAAAGAGCACUUAGAAGGACAGAAACAUAAAAAAAAGGAAGCCGCAUUGAAAGCC | 1.08

Set 2
Target: Histone acetyltransferase KAT6A, winged helix 1, GST fusion (KAT6A, Homo sapiens, UniProt Q92794, residues 1-85)
Technique: protein binding microarray
Molecule type: double-stranded DNA, one strand shown
Matrix: in vitro
Tested at: not given
Setting: 8-mer, flanks averaged, mean of 2 arrays, mostly near background
Relative to: not given
Reading: higher = stronger binding
Construct (chain): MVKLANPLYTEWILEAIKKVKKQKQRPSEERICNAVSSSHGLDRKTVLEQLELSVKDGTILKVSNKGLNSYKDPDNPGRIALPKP
Strand | E-score
AAGTCGCG | 0.163
ACATGATG | -0.145
GCTCTATA | -0.018
TAACAAAA | -0.221
AGTGTGTA | -0.0418
CGTAGCAG | -0.0283
ATGATTAA | -0.218
GAATGTAA | -0.0542
CAGTTGCA | -0.149
CGTACTTC | 0.105
ATAGCCAA | -0.142
AATCTAGA | -0.133
AGCCTCAA | -0.213
GGTCTCTA | -0.0786
AGGTACCT | -0.27
GCGTCCCA | 0.0479
AACTATGT | -0.113
CATGAGGG | -0.102
AGCCGAAG | 0.018

Set 3
Target: Ras GTPase-activating protein-binding protein 1, RRM domain (G3BP1, Homo sapiens, UniProt Q13283)
Chain of UniProt Q13283 (whole entry, looked up): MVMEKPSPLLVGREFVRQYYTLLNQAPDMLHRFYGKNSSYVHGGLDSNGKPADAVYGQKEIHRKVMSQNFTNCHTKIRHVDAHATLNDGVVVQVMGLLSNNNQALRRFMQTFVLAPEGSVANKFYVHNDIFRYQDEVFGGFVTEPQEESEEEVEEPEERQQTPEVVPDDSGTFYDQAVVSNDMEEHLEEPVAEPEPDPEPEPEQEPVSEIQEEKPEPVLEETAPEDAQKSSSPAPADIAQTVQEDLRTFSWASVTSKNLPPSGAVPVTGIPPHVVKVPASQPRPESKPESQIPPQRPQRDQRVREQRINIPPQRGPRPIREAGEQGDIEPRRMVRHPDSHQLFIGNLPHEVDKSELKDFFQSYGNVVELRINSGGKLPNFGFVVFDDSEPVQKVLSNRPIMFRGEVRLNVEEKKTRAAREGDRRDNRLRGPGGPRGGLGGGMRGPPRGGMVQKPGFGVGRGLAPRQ
Technique: RNA Bind-n-Seq
Molecule type: RNA
Matrix: in vitro
Tested at: 1 µM
Setting: whole 134-nt RNA, ends assumed
Added: 150 mM KCl
Relative to: input library
Reading: higher = stronger binding
Shared flanks, not repeated: GGGAGUUCUACAGUCCGACGAUC … UGGAAUUCUCGGGUGUCAAGG
Strand | log2 enrichment
CAAGUCCUGUGCUACACAUCGUAUGUACCGAAUCGGUGGUUUUUUUGGAAAAAGGAAAGUAUUAUGUUACGCCGUUCGGAUCUGCACUUC | -0.197
ACCAUGCAGGUGGGCAUCUUUGGGAAAAGGGGCAAGGGGGGGAUAGGGAGGGGGGUAACACUUUGGGAACAGGUGGUCCCAGGUCGUUUC | -0.35
UCCUGUGCUACACAUCGUAUGUACCGAAUCGGGGAAAAAGGGGAAAAAAAGGGGUGGGGAAAGUAUUAUGUUACGCCGUUCGGAUCUGCA | 0.688
UAACUUCAGAGGAGGAUCUGAUGGAUAUGGCAGUGGACGUGGAUUUGGGGAUGGCUAUAAUGGGUAUGGAGGAGGACCUGGAGGUGGCAA | -1.02
AAGUCCUGUGCUACACAUCGUAUGUACCGAAUCGGGUGGGUUUUUUUGGGUUUGGGAAAGUAUUAUGUUACGCCGUUCGGAUCUGCACUU | 0.463
GCUGGAAGUAAAAACAAAUGGAAAUGCUUCGGAUAGUGGCAGGGGUGGGGGUUGCUAAGGAAAGGGUGGGAUGGGAGUGGGUAAAGAGUU | 1.59
ACCAUACAGGUGGGCAUCUUUGGGAAGUGGGGCAAGGGGGGGAUAGGGAGGGGGGUAACACUUUGGGAACAGGUGGUCCCAGGUCGUUUC | -0.605
CUGUGCUACACAUCGUAUGUACCGAAUCGGGGUUUGGGGAAAAAAAGGGGAAAAAAAGGGGAAAGUAUUAUGUUACGCCGUUCGGAUCUG | 0.588
UGGCCCUGGUGGCAUGCGGGGAGGAAGAGGUGGCCUCAUGGAUCGUGGUGAUCCCGGUGGAAUGUUCAGAGGUGGCCGUGGUGGAGACAG | 0.314
CUGUGCUACACAUCGUAUGUACCGAAUCGGGAAAAAAGGGGAAAAAAGGGGAAAAAAGGGGAAAGUAUUAUGUUACGCCGUUCGGAUCUG | 0.138
ACCAUGCAGGUGGGCAUCUUUGGGAAGUGGGGCCAGGGGGGGAUAGGGAGGGGGGUAACACUUUGGGAACAGGUGGUCCCAGGUCGUUUC | -0.408
GUCCUGUGCUACACAUCGUAUGUACCGAAUCGGUUUUUGGUUUUUUUGGUUUUUUUGGAAAGUAUUAUGUUACGCCGUUCGGAUCUGCAC | -0.203
GACUCUGAAGAAGAAGCUAUGGAGACUACACCAGCCAAAGGAAAGAAAGCUGCAAAAGUUGUUCCUGUGAAAGCCAAGAACGUGGCUGAG | -0.0751
AAGUCCUGUGCUACACAUCGUAUGUACCGAAUCGGAAAGGAAAAAAAGGAAAAAGGAAAGUAUUAUGUUACGCCGUUCGGAUCUGCACUU | -0.019

Set 4
Target: RNA binding protein fox-1 homolog 2, RRM domain, GST-SBP tag (RBFOX2, Homo sapiens, UniProt O43251-10, residues 100-194)
Technique: RNA Bind-n-Seq
Molecule type: RNA
Matrix: in vitro
Tested at: 365 nM
Setting: natural RNA segment, single round, ends assumed
Relative to: no-protein control
Reading: higher = stronger binding
Shared flanks, not repeated: GGGAGUUCUACAGUCCGACGAUC … UGGAAUUCUCGGGUGCCAA
Construct (chain): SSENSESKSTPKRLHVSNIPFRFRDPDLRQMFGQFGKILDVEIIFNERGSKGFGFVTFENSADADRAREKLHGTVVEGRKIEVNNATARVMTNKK
Strand | RBNS enrichment (R)
UUUUAGCAUGAUUUUCUUUUAAACUGCUUUUCAUUUUAAGGGCACCCGUGGCGGAAGCUGGUUUUGCAAGGACUGUGUAAGCUGUAUGCGUUCUAGCUGUAUGCGUUCUG | 1.76
UUCUACUUGGUGUUUGUUCUCUGGAGCUGAUUGCACUUGAGCUCUGUGGUGGGCAGGCGCACUUUAGCCUAAGUUGGGUGCCCCAGGGCACCCCCUCCUCUCUGCUCCUU | 2.54
CGUAUAUUUAGAACUGCACUUUGUCCACAACCUUCCCUUCUCUUUCUAUUCCCCAGUGAACUGAGGUUUUUACCGAUUUAUAGAGCAGUCAAAUCCGAAGUGCUCGAGUG | 0.383
CGUCCGUCCUGUGGGCGCUCUGCCCUGUGUCCUUCGCGUUCCUCGUUAAGCAGAAGAAGUCAGUAGUUAUUCUCCCAUGAACGUUCUUGUCUGUGUACAGUUUUUAGAAC | 0.547
UGAGAUGAGGAUAUGUUUGAGAUGCACAGUUGGAUAAUGUGGGAAAAUGACAUCUAAGCUUUACCUGGUCACCAUGUGAUGUGAUCAGAUGCUUGAAAUUUAACACUUUU | 0.561
GAUUCUCAGGGAGCCCUCUGUGGCCUUUUGCUUUGCGUGCUGUUUCCCUUGUACCAGAGGGCGGCACCGUGGAAAUUCUGUUUUCCCUGUAGCAUAUUGUGUUGGAUUGC | 0.383
GUGCAGCGCCUUUGAGGCUCUGGGUGUAAGACAGUUUCCUUCCCUGACUCUCGUGCACAGACAGCAUGCAGCAUACAGACUGAAACUGUGCUCUGCCGAGUAGAAAGUAG | 1.76
UGCCUAUGCCAGCUAAAAGUUUUUCCUGUUACUGCUGUGUUCUUCUUGCUAGAGAAAACAUAUAUUAAACUGUAACUUUUUCUAAAUUUAAAAGAAGUUUUAAGAUAGAU | 0.485
AGCUCUUUGGCAAUUCUCCUUCCCUCACUCCUCAGGGUGGGGGCUAGAGUAAGCCUGACAUCCUCCUCCAUUCUCAAGACUCUCUCUCUUUCAUUUGGUACCCUGUACCC | 0.385
UUGGCAAUAAUGUCAACACCAGAAAGCCUCCUCUGGAGAAUCUUACAGAGUGAUUGUAGUUUAAUACAGGAACACACAGGGCUGUGUAGCAUGAUACCAGGCCCAGGAGA | 3.27
UGCCCUUUGCUGGGAAGCCUUCACUCUCCAGCUUUCCUGGGGUAGGGAAGGUCUCCCACAUUAUGCAAUAAUAAAAUAAGCAUCUGGGUCUUUGCAGCUGUCAGUUGCUC | 0.274
GUGGCAGUAAAGAGAAACUUUGCUACACAACAAAAAGCUGCUAAAUCUCCCUCUAUUUUUUUAAAAUCACUAACAUUAUAUUGCAAUGAGAGAAAUUUUAAAAAGUCUCU | 0.319

Excerpt of the above (set 2):
Strand | E-score
GCGTCCCA | 0.0479
AACTATGT | -0.113
AGCCGAAG | 0.018
GAATGTAA | -0.0542
AGCCTCAA | -0.213
GGTCTCTA | -0.0786
